{"data": "Measurements pooled from the literature", "note": "Parts stem from different laboratories: compare values within a part only.", "sequence of UniProt Q8NG66 (whole entry, looked up)": "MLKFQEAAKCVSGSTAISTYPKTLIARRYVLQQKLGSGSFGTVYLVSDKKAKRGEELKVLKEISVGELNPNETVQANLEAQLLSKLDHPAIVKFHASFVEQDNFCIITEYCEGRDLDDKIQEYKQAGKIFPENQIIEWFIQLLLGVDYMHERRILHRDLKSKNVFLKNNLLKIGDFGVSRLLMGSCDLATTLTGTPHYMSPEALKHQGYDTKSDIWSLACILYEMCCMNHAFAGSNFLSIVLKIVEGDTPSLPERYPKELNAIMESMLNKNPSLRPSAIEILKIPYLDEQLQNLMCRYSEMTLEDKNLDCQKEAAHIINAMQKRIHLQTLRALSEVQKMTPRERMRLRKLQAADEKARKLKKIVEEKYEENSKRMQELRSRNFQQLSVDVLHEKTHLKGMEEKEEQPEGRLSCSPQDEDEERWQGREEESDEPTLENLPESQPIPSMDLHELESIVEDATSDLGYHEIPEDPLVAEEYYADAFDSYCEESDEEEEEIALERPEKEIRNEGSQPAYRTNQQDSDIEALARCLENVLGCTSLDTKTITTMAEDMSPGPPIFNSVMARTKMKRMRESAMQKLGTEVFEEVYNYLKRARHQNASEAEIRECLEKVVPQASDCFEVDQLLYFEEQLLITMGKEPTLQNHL"}
{"data": "Set 1", "target": "RNA binding protein fox-1 homolog 2, RRM domain, GST-SBP tag (RBFOX2, Homo sapiens, UniProt O43251-10, residues 100-194)", "method": "RNA Bind-n-Seq", "molecule type": "RNA", "medium": "in vitro", "concentration": "365 nM", "notes": "natural RNA segment, single round, ends assumed", "relative to": "no-protein control", "reading": "higher = stronger binding", "shared flanks, not repeated": "GGGAGUUCUACAGUCCGACGAUC … UGGAAUUCUCGGGUGCCAA", "Target sequence (chain)": "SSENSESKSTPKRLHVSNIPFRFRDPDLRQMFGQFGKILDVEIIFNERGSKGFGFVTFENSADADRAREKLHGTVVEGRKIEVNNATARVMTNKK"}
{"Sequence": "UGAGCCCCUAGACAGUAUUGCCAUCUCUGGCCAAAUAUGCACUUUCCCUAGAAAGCCAUAUUCCAGCAAUGAACCUUGUGCUAUAGUGACUCCCACCUGUACAUACAUUG", "RBNS enrichment (R)": 0.359}
{"Sequence": "AACUCCAUGUGUGUGUGUUAAGUGUUUGACUCCAAUUAAGACUCCCAAGCAAAUCCUGCAUAUUCCAAAUGUAAAGAGUACUCAGUGGGAAAAAGGUUGUUACCUCAAAG", "RBNS enrichment (R)": 1.21}
{"Sequence": "UUUUUUAUGGUUAAAAGUAACUUUUGUAGUUUAAAAAAAUCUUUCCUCUUUCAUAUAAAUAAGAAGUGGAAAUUGCCUUUUUAUUGUGUAAUGUAGAAAACCCUCAAGUG", "RBNS enrichment (R)": 0.636}
{"Sequence": "UGGAAAAAGGACACAGAAUGGGGCUUGUGGGAAAGACCGGGACAAUAAAGCCCACCAUGUAAACCAAAUGACUGUUAGUCUCUGAGAGCCUUCAUGCGCCACCACUCAAG", "RBNS enrichment (R)": 0.613}
{"Sequence": "UAUAAAACUACAACCUGAUCUACCCUCCAGGGCCUCCUCAGUUCCACUGAUUGAAAUUUUCUUCUUCCAUGGACUAAGUCCAUCUAGGAAGGAAAAAUGAGGAGAAAGAG", "RBNS enrichment (R)": 0.258}
{"Sequence": "UGACUUUUCAGCCAGUACCAUUUUAUUUACCUGAGCUUGUCAUGGAAGUGGCAGUAAAAAGUAUUGAGUGUUUUAUGCUGGUGACUGUAACCAAUGUCAUCUUGCUAAAU", "RBNS enrichment (R)": 0.399}
{"Sequence": "CCCCUAAAGGCUGAUCCAACUGCUUCUGUGGUUCCACGGUAUUUUUCAUGGUUCAUGUGAAACGUGAUAUCACUGGGCUGCCAAAGCACAAAUGAGUCAGUAUUCUUGGG", "RBNS enrichment (R)": 0.327}
{"Sequence": "GUAUAGCCCUGGCUGUCCUGGAACUCACUCUGUAGACCAGGCUGGCCUCAAACUCAAAAAUCCACCUGCCUCUGCCUCCCAAGUGCUGGGAUUAAAGGCGUGCGCCACCA", "RBNS enrichment (R)": 0.209}
{"data": "Set 2", "target": "Histone acetyltransferase KAT6A, winged helix 2, GST fusion (KAT6A, Homo sapiens, UniProt Q92794, residues 85-181)", "method": "protein binding microarray", "molecule type": "double-stranded DNA, one strand shown", "medium": "in vitro", "concentration": "not given", "notes": "8-mer, flanks averaged, mean of 2 arrays, mostly near background", "relative to": "not given", "reading": "higher = stronger binding", "Target sequence (chain)": "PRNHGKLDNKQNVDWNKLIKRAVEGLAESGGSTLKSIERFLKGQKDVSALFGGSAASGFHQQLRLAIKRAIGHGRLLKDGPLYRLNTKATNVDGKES"}
{"Sequence": "ACTAGGCA", "E-score": -0.0888}
{"Sequence": "TTCAGCAA", "E-score": 0.138}
{"Sequence": "AGATCGGG", "E-score": -0.0686}
{"Sequence": "CTGTCTTA", "E-score": 0.0307}
{"Sequence": "CCGTCGTC", "E-score": -0.0155}
{"Sequence": "AAATAGAG", "E-score": 0.0695}
{"Sequence": "CGCTTTCA", "E-score": -0.00609}
{"Sequence": "GAGTTCTA", "E-score": -0.00536}
{"data": "Set 3", "target": "Ras GTPase-activating protein-binding protein 1, full length (G3BP1, Homo sapiens, UniProt Q13283)", "method": "RNA Bind-n-Seq", "molecule type": "RNA", "medium": "in vitro", "concentration": "200 nM", "notes": "whole 134-nt RNA, ends assumed", "together with": "150 mM LiCl", "relative to": "input library", "reading": "higher = stronger binding", "all molecules": "7-deaza-guanosine replaces G", "shared flanks, not repeated": "GGGAGUUCUACAGUCCGACGAUC … UGGAAUUCUCGGGUGUCAAGG", "sequence of UniProt Q13283 (whole entry, looked up)": "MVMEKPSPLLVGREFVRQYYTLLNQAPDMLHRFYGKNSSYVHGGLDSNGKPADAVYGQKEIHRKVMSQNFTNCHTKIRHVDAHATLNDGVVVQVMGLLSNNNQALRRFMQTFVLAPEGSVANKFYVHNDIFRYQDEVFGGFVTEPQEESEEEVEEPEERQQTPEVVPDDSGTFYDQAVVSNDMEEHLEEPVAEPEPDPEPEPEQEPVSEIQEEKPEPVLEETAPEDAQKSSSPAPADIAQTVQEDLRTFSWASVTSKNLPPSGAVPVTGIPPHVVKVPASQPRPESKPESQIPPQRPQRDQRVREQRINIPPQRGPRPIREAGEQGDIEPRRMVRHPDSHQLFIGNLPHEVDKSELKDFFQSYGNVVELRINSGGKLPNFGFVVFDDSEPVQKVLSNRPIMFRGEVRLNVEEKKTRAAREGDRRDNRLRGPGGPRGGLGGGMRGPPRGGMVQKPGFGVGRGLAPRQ"}
{"Sequence": "UGGGAGGUGGAUUUUAUUUAUUUUUUUAGCUCAUUUCCAGGGGUGGGAAUUUUUUUUUAAUAUGUGUCAUGAAUAAAGUUGUUUUUGAAA", "log2 enrichment": -0.247}
{"Sequence": "UGGAGAAGGAACGUGAUAAAGAAGUAAGCGAUGAUGAGGCUGAAGAAAAGGAAGACAAAGAAGAAGAAAAAGAAAAAGAAGAGAAAGAGU", "log2 enrichment": 0.651}
{"Sequence": "UAACUUUAGAGGAGGAUCUGAUGGAUAGGGCAGUGGACGUGGAUUUGGGGAUGGCUAUAAUGGGUAUGGAGGAGGACCUGGAGGUGGCAA", "log2 enrichment": -0.345}
{"Sequence": "GUCCUGUGCUACACAUCGUAUGUACCGAAUCGGGGUUUUUGGGGAAAGGGGUUUGGGGAAAGUAUUAUGUUACGCCGUUCGGAUCUGCAC", "log2 enrichment": -0.756}
{"Sequence": "GUCCUGUGCUACACAUCGUAUGUACCGAAUCAAACCCCCAAACCCAAAUUUUUUUAAAAAAGUAUUAUGUUACGCCGUUCGGAUCUGCAC", "log2 enrichment": 1.06}
{"Sequence": "CUCAAGUCCUGUGCUACACAUCGUAUGUACCGAAUCGGGGAGGAGGGGAGGGGAAAGUAUUAUGUUACGCCGUUCGGAUCUGCACUUCCA", "log2 enrichment": -0.191}
{"Sequence": "GCAGGAAGUAAAAACGAAUGGAAAUGCUUCGGAUAGUGGCAGGGGUGGGGGUUGCUAAGGAAAGGGUGGGAUGGGAGUGGGUAAAGAGUU", "log2 enrichment": -0.136}
{"Sequence": "UGGCCCUGGUGGCAUGCGGGGAGGAAGAGGUGGCCUCAUGGAUCGUGGUGGUCCCGGUGGAAUGUUCAGAGGUGGCCGUGGUGGUGACAG", "log2 enrichment": -0.0866}
{"data": "Mixed results"}
{"Compound": "COc1cc2ncnc(Nc3ccc(O)c(Br)c3)c2cc1OC", "target": "Serine/threonine-protein kinase Nek11 (NEK11, Homo sapiens, UniProt Q8NG66)", "read-out": "enzyme activity", "action": "inhibitor", "concentration": "0.5 µM", "relative to": "control", "endpoint": "remaining activity", "result": "103%"}
{"note": "Some of these lines once more (set 1):"}
{"Sequence": "UGGAAAAAGGACACAGAAUGGGGCUUGUGGGAAAGACCGGGACAAUAAAGCCCACCAUGUAAACCAAAUGACUGUUAGUCUCUGAGAGCCUUCAUGCGCCACCACUCAAG", "RBNS enrichment (R)": 0.613}
{"Sequence": "GUAUAGCCCUGGCUGUCCUGGAACUCACUCUGUAGACCAGGCUGGCCUCAAACUCAAAAAUCCACCUGCCUCUGCCUCCCAAGUGCUGGGAUUAAAGGCGUGCGCCACCA", "RBNS enrichment (R)": 0.209}
